Earlier results that unrelated publications cite.
Each line is one published result; not all experiments were run side by side.

Structure (SMILES)	target or system	assay	test system	setting	how to read	measurement	value
CS(=O)(=O)N1CCN(Cc2cc3nc(-c4cccc5[nH]ncc45)nc(N4CCOCC4)c3s2)CC1	–	–	advanced solid tumour patients	15 to 450 mg, continuous daily dosing	reference: patients	grade ≥3 rash	8%
Cn1cncc1-c1c(F)cncc1NC(=O)c1c(N)nn2cc(F)cnc12	–	–	patients with advanced solid tumours	130 mg once daily, first treatment cycle	–	grade ≥3 anaemia incidence	11%
CC(=O)O[C@H]1C(=O)[C@@]2(C)[C@H]([C@H](OC(=O)c3ccccc3)[C@]3(O)C[C@H](OC(=O)[C@H](O)[C@@H](NC(=O)c4ccccc4)c4ccccc4)C(C)=C1C3(C)C)[C@]1(OC(C)=O)CO[C@@H]1C[C@@H]2O	–	–	advanced esophageal cancer patients	80 mg/m2 weekly, monotherapy	–	grade 3 peripheral neuropathy incidence	3%
Cc1cc(C)c(CNC(=O)c2cc(Cl)c3c(c2C)O[C@@](C)([C@H]2CC[C@H](N(C)C)CC2)O3)c(=O)[nH]1	–	–	relapsed/refractory ATLL patients	200 mg/day, added: fluconazole	–	grade ≥3 TEAE incidence	63.6%
Nc1cc(C(F)(F)F)c(-c2cc(N3CCOCC3)nc(N3CCOCC3)n2)cn1	–	–	advanced solid tumour patients	dose not given, continuous daily dosing	reference: patients	grade ≥3 rash	7%
Nc1cc(C(F)(F)F)c(-c2nc(N3CCOCC3)nc(N3CCOCC3)n2)cn1	Serine/threonine-protein kinase pim-3 (PIM3, Homo sapiens, UniProt Q86V86)	enzyme activity	–	10 µM	reference: untreated	remaining activity	78%
C[C@@H]1COCCN1c1cc([C@]2(O)C[C@H]3CC[C@@H](C2)O3)c2cnn(-c3cc[nH]n3)c2n1	–	–	patients with advanced solid tumours	dose not given	–	grade ≥3 anaemia incidence	32%
Nc1ccn([C@@H]2O[C@H](CO)[C@@H](O)C2(F)F)c(=O)n1	–	–	metastatic pancreatic cancer patients	dose not given	–	grade 3 or higher diarrhoea	1%
CC(C)n1nc(-c2ccc3oc(N)nc3c2)c2c(N)ncnc21	–	–	patients	dose not given, dose-expansion phase	–	grade ≥3 hyperglycemia incidence	16%

Repeated from above:
Structure (SMILES)	target or system	assay	test system	setting	how to read	measurement	value
Cc1cc(C)c(CNC(=O)c2cc(Cl)c3c(c2C)O[C@@](C)([C@H]2CC[C@H](N(C)C)CC2)O3)c(=O)[nH]1	–	–	relapsed/refractory ATLL patients	200 mg/day, added: fluconazole	–	grade ≥3 TEAE incidence	63.6%
